# Experimental data of several laboratories.
# Protocols differ between the studies behind these lines. Several values in a cell are separate wells, animals, samples, runs or records.
# Target: 3-phosphoinositide-dependent protein kinase 1 (PDPK1, Homo sapiens, UniProt O15530)
# Sequence (O15530 1-556, as in one of the studies): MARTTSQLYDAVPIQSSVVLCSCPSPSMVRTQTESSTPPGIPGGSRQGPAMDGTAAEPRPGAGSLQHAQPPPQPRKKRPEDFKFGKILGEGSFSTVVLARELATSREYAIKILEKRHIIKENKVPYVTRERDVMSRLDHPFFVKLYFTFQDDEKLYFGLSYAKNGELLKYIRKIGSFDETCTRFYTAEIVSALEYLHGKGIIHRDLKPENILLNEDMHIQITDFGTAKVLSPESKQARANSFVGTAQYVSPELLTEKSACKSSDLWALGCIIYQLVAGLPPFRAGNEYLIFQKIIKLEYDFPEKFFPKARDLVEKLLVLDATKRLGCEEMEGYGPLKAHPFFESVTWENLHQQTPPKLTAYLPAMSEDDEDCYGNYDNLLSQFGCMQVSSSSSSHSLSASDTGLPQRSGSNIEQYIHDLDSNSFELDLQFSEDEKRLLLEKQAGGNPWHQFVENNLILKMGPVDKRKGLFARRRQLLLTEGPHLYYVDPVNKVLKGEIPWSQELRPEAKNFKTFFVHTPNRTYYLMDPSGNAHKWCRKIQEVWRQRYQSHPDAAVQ
Compound,assay,system,conditions,scale,endpoint,result
Cc1cccc(O[C@H]2CCC[C@@H](C(C)CNCc3ccncc3)C2)c1 (relative stereo),"enzyme activity, inhibitor",,1 µM,,inhibition,-4%
COc1cc(Nc2nc(C)cc(-c3cnn4nc(OC)ccc34)n2)cc(C(F)(F)F)c1,inhibitor,,1 µM,baseline: control,remaining activity,100%
CCn1cc(C(=O)O)c(=O)c2c(N)c(F)c(NC3CCCCC3)cc21,kinase activity,,"0.1 µM, together with: ATP at Km",,inhibition,-16.3%
COCC12C(=O)NC3C4(C(OC)CC1O)C1CC5(O)C(OC)C(O)C(OC(C)=O)(C1C5OC(=O)c1ccccc1)C3(O)C(OC)C24 (stereo not drawn),"kinase activity, inhibitor, ProQinase kinase profiling",,25 µM,baseline: control,remaining activity,94% and 105%
CNC(=O)C[C@H](Cc1ccc(C#N)cc1)NC(=O)c1cc(-c2ccc(CN[C@H](C)c3ccc(C)cc3)o2)ccc1Cl,"enzyme activity, inhibitor",,1 µM,,activity vs control,90%
Cc1ccc(C)c(-c2ccc3nc(NC(=O)C4CCCCC4)nn3c2)c1,"enzyme activity, Dundee kinase panel",,10 µM,,remaining activity,96%
Cc1[nH]nc2c1N=C(c1ccccc1Cl)c1cnc(N3CCOCC3)cc1N2,"enzyme activity, inhibitor",,0.5 µM,,inhibition,78.4%
C=CC(=O)Nc1cccc(-c2cnc3[nH]cc(C(=O)NC(C)(C)C)c3n2)c1,kinase activity,,0.1 µM,,inhibition,17% and 6%
COc1ccc(C(=O)/C=C/c2ccccc2-c2c[nH]c3ccc(C#N)cc23)c(O)c1,"enzyme activity, inhibitor",,20 µM,,inhibition,2%
C[C@H]1CN(C(=O)c2cn(-c3ccnc(N)n3)c3cc(C#CC4(O)CCCCC4)ccc23)CCN1,"enzyme activity, inhibitor, FRET",,1 µM,,inhibition,-9%
COc1ccc(NC(=O)Nc2ccc3c(c2)C(=O)N(C(C)CO)CC(C)C(CN(C)Cc2ccc4c(c2)OCO4)O3)cc1 (stereo not drawn),"kinase activity, KinaseProfiler",,"0.03 µM, species human",baseline: control,remaining activity,98%
Cc1cccc(-c2ccc3nc(NC(=O)C4CCCCC4)nn3c2)c1,"enzyme activity, Dundee kinase panel",,10 µM,,remaining activity,101%
NC(=O)C[C@H]1CCc2sc3ncnc(O[C@H]4CC[C@H](N5CCOCC5)CC4)c3c21,"enzyme activity, inhibitor",,10 µM,,inhibition,5%
C=CC(=O)N1CCCC(n2c(=O)c3ncccc3n(Cc3ccc(Oc4ccccc4)cc3)c2=O)C1 (stereo not drawn),"cell-free assay, competition with immobilised ligand",,1 µM,,remaining binding,100%
CN1CCN(Cc2ccc(NC(=O)c3cccc(C#Cc4cnc(N)c5ncccc45)c3)cc2C(F)(F)F)CC1,"cell-free assay, competition with immobilised ligand",,50 nM,,remaining binding,100%
COc1c(OCCCN2CCOCC2)ccc2c1N=C(NC(=O)c1cnc(N)nc1)N1CCN=C21,"kinase activity, inhibitor",,1 µM,baseline: untreated control,remaining activity,105%
CCN1CCN(Cc2ccc(C(=O)Nc3ccc(C)c(NCc4cnc5[nH]ccc5c4OC)c3)cc2C(F)(F)F)CC1,"binding, competition with immobilised ligand",,1 µM,,remaining binding,99%
N[C@H]1CC[C@H](Nc2nccc(-c3cccnc3Oc3ccc(NC(=O)NC4CC4)c4ccccc34)n2)CC1,kinobead competition pulldown,HEK293/HCT116 lysate mixture,"10 µM, 1 h, 4 °C",lower = stronger competition,log2 LFQ intensity,23.4 and 23.3
CNC1C[S+]2CC[S+]3CC[S+](C1)[Ru-4]321([N]=C=S)[n]2c3ccc(OC)cc3c3c4c(c5cc(F)c[n+]1c5c32)C(=O)NC4=O (stereo not drawn),KinomeScan,,0.1 µM,baseline: untreated,remaining binding,58%
C=C1CCCCCCCCCC(CO)C1=O (stereo not drawn),"cell-free assay, competition with immobilised ligand",,10 µM,,remaining binding,100%
Cc1cnc2nc1Nc1cccc(c1)COC/C=C/COCc1cc(ccc1OCCN1CCOCC1)N2,binding,,0.1 µM,,remaining binding,100%
CC(=O)N1c2ccc(-c3ccc(CNC(=O)c4cn5cc(-c6cnc(N)nc6)nc(N6CCOCC6)c5n4)cc3)cc2CC[C@@H]1C,KINOMEscan,,10 µM,,remaining binding,96%
CNS(=O)(=O)Nc1nccc(Cc2c(C)c3ccc(Oc4ncccc4F)cc3oc2=O)c1F,"binding, competition with immobilised ligand",,10 µM,,remaining binding,87%
O=C(Nc1ccc(Oc2ncnc3[nH]cc(-c4ccccc4)c23)c(F)c1)c1c2n(n(-c3cc(F)ccc3F)c1=O)CCCC2,"enzyme activity, inhibitor",,0.5 µM,,inhibition,14%

# Some of these lines once more:
Compound,assay,system,conditions,scale,endpoint,result
Cc1cccc(O[C@H]2CCC[C@@H](C(C)CNCc3ccncc3)C2)c1 (relative stereo),"enzyme activity, inhibitor",,1 µM,,inhibition,-4%
N[C@H]1CC[C@H](Nc2nccc(-c3cccnc3Oc3ccc(NC(=O)NC4CC4)c4ccccc34)n2)CC1,kinobead competition pulldown,HEK293/HCT116 lysate mixture,"10 µM, 1 h, 4 °C",lower = stronger competition,log2 LFQ intensity,23.4 and 23.3
CN1CCN(Cc2ccc(NC(=O)c3cccc(C#Cc4cnc(N)c5ncccc45)c3)cc2C(F)(F)F)CC1,"cell-free assay, competition with immobilised ligand",,50 nM,,remaining binding,100%
